# Measured values from different studies.
# Each numbered part is a random draw from the data of one study; scales do not carry over between parts. Positions count from the first letter of the parent shown.

# Set 1
# Target: RING finger protein unkempt homolog, zinc fingers 1-6, GST-SBP tag (UNK, Homo sapiens, UniProt Q9C0B0, residues 30-357)
# UniProt Q9C0B0, sequence (30-357, looked up): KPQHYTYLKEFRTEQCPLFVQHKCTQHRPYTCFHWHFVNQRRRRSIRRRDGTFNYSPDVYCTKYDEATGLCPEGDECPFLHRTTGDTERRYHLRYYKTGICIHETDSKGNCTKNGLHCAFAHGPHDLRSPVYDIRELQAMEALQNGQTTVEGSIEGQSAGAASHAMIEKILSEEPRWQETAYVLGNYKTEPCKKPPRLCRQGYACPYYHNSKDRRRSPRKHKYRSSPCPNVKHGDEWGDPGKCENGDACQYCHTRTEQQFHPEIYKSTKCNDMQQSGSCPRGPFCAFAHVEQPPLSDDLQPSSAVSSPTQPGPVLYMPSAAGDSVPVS
# Method: RNA Bind-n-Seq
# Form: RNA
# Matrix: in vitro
# Tested at: not given
# Setting: RNA with constant flanks, human-mouse chimeric sites, ends assumed
# Relative to: input RNA pool
# Reading: higher = stronger binding
Oligonucleotide,bound/input enrichment
GGGAGUUCUACAGUCCGACGAUCGGAAUUGCAAACUGAUUUAAGUUUGAGUAUCACAAUGUUAGCUUUCUAAUUCCAUAAAAGUACUUGGUUUUUACAGUUUAUAAUCUGACAUCACCCCAGCGCCAUUUGUAAAGAGCAACUCAACAGAGGAUUGAGCAUCA,0.576 ratio
GGGAGUUCUACAGUCCGACGAUCGAUAAGAAAAGCUUGUUGGAGACCCGCUUGCAUGUCACUGGUAGAGACCUGAGGUGUCAAAUAGCUGAAACCUUUGGAUUUCAAGAAAAUUACAUCAAGAUCGUAAUAAAUAAGAAGCAGCAACAGAGGAUUGAGCAUCA,0.414 ratio
GGGAGUUCUACAGUCCGACGAUCUGUGCAUUAUGAUGCUUAGAUGGUUUUUGCAGAUGCAGAAAUCGCUGCAAGGUAAUCACAAUAGAUAAAAGUGGUAUUUUAAACCUUUGAAAUAAAUGGAUGUAACUGUACCUUGGUACACAACAGAGGAUUGAGCAUCA,0.671 ratio
GGGAGUUCUACAGUCCGACGAUCUUGAAAACUGAUUCAAGUAAGUUUGAGUAUCACAAUGUUAGCUUUCUAAUUCCAUAAAAGUACUUGGUACAGUUUCUUUAUAAUCUGACAUCACCCCAGCGCCAUUUAGAUCAGCUUACUCAACAGAGGAUUGAGCAUCA,2.97 ratio

# Set 2
# Target: Histone acetyltransferase KAT6A, winged helix 2, GST fusion (KAT6A, Homo sapiens, UniProt Q92794, residues 85-181)
# Method: protein binding microarray
# Form: double-stranded DNA, one strand shown
# Matrix: in vitro
# Tested at: not given
# Setting: 8-mer, flanks averaged, mean of 2 arrays, mostly near background
# Relative to: not given
# Reading: higher = stronger binding
# Target sequence (chain): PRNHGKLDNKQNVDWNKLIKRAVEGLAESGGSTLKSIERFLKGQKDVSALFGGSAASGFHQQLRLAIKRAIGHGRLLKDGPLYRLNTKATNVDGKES
Oligonucleotide,E-score
ACGTATTG,-0.182
GGATACAC,-0.0907
GTAGGCTA,-0.0441
GATCGAGC,0.227
ATAGCAAG,0.0245
AGATTCCA,-0.0563
AGTGTGGA,-0.0894
AATTGTAG,-0.0872
GGTGACCA,-0.0883
CGAGTCAC,-0.0433
TCATCGGA,-0.00355
CGAGCTTC,0.0982
ATATTATA,0.0579
GTGCCCAC,0.0433
AATACCCA,-0.0281
AAAGCGAG,0.151
CTCCTATA,-0.151
CTTGCGAC,0.0247

# Set 3
# Target: Phosphate system positive regulatory protein PHO4, full length, GST-tagged (PHO4, Saccharomyces cerevisiae, UniProt P07270, residues 1-312)
# Method: competition protein-binding microarray
# Form: double-stranded DNA, one strand shown
# Matrix: in vitro
# Tested at: 2 µM
# Setting: whole 60-bp probe, lowest competitor level
# Added: Cbf1 competitor, 0.05 µM
# Reading: higher = stronger binding
# Shared flanks, not repeated: … GTCTTGATTCGCTTGACGCTGCTG
# Target sequence (chain): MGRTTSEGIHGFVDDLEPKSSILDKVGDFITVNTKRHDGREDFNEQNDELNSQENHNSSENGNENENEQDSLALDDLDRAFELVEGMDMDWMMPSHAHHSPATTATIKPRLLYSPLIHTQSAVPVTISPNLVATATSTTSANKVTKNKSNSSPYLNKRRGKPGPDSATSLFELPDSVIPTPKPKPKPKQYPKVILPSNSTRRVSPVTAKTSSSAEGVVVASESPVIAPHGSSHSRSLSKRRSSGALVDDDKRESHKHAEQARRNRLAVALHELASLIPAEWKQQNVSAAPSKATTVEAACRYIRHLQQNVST
Oligonucleotide,fluorescence intensity
TCGATGTCAAAAAATCTCGTGAGACCTCCGGAATTT,4030 a.u.
TAATTAAGGCAATGCCAGGTGATAAAGTTAAGGTTC,3820 a.u.
CCCTAAAGTTTGGTGCACGTGGTTTTCTCTCGCTCT,16600 a.u.
AAATTACTAAGTTGTCACTCTACTTACCCCGTATGA,3410 a.u.
TCTTCTTTTGGTTGGCATGCGTGTAGGCTTCAAGGT,10300 a.u.
ATCATTTTCAATGAAGCTGTGACGGTGGCATTCGCA,4290 a.u.
AAATTACTAAGTTGCAGCGTGGGTGACGCCGTATGA,7780 a.u.

# Set 4
# Target: CCND1, cyclin fold, Cln2 fusion (human)
# Method: yeast growth competition, sequencing
# Matrix: yeast
# Setting: weak parent motif
# Relative to: not given
# Reading: higher = stronger binding
# Starting sequence: RB1 docking peptide (human); PKPLKKLRFDIEG; partner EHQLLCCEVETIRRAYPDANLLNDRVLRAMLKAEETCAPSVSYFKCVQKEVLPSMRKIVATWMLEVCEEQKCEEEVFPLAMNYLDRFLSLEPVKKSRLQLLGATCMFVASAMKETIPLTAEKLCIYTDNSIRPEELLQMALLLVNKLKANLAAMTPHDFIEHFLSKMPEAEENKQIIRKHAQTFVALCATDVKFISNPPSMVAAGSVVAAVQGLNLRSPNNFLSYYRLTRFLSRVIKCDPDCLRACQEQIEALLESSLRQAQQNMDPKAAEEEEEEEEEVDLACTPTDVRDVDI
Variant,normalised enrichment score
R8T,0.276
R8I,0.341
K5C,0.243
D10N,0.241
L7H,-0.112
R8E,-0.591
F9P,-0.254
R8H,0.257
L7Y,-0.362

# Further values, each from its own experiment
Substance,target,assay,test system,setting,scale,quantity,result
"PhoQ, residues 284 288 289 292 302 303 SCEHLI","PhoP, residues 12 14 15 18 19 NHTVL (Escherichia coli, UniProt P23836)","Sort-seq, item: YFP reporter",E. coli,"PhoQ-PhoP variant library, added: 10 µM Mg2+","relative to: high Mg2+ state, higher = stronger signaling",fold induction,6.29

# Repeated from above (set 3):
Oligonucleotide,fluorescence intensity
AAATTACTAAGTTGTCACTCTACTTACCCCGTATGA,3410 a.u.
TCTTCTTTTGGTTGGCATGCGTGTAGGCTTCAAGGT,10300 a.u.
ATCATTTTCAATGAAGCTGTGACGGTGGCATTCGCA,4290 a.u.
